Results pooled from the literature.
Numbered parts are unrelated; each lists some results of a single study. “And” joins repeats or separate records; there may be more than shown.

Study 1 — effect on: enzyme activity; endpoint: inhibition
Compound: NC/C(=C\F)COc1ccc(C(F)(F)F)c(Cn2c(=S)[nH]c(=O)c3[nH]cnc32)c1
Target: Myeloperoxidase (MPO, Homo sapiens, UniProt P05164)
Chain of UniProt P05164 (whole entry, looked up): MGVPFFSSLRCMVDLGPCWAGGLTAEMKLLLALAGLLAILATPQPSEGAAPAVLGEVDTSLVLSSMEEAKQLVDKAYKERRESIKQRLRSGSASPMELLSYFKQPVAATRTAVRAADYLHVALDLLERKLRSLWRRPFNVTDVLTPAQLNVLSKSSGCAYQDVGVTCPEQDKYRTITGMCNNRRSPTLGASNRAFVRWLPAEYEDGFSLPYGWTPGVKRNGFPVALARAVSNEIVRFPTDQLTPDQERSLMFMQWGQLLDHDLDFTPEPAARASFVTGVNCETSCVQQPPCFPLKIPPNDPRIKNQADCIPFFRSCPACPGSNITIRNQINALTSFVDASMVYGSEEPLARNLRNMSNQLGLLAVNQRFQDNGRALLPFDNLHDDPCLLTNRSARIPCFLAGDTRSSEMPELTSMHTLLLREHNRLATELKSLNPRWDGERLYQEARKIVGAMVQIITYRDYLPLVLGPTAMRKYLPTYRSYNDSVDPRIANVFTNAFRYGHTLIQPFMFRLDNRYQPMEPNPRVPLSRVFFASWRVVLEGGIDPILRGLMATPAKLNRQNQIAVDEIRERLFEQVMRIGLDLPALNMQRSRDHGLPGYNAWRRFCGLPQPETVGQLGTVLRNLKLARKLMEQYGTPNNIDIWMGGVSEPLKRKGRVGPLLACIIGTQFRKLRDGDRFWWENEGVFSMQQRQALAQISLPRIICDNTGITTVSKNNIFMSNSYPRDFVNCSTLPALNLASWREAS
concentration = 10 µM; value = 99.5% and 99.4%
concentration = 0.0137 µM; value = 19% and 26.9%
concentration = 0.0005 µM; value = 9.84% and -22.3%
concentration = 0.0015 µM; value = -15.5% and 11.5%

Study 2 — effect on: thermal unfolding; technique: differential scanning fluorimetry; concentration: 5.5 µM; reading: higher = more unfolded; endpoint: SYPRO Orange fluorescence
SMILES: C[C@@H]1CN(c2ccc(-c3cc(C(=O)NCCOCCOCCOCCOCCOCCOCCNC(=O)/C=C/c4[nH]cc(C(=O)N[C@@H](CC(N)=O)c5ccc(F)c(Cl)c5)c4-c4ccc(Cl)cc4F)ccc3F)cc2NC(=O)c2ccc(F)cc2C(F)(F)F)C[C@H](C)N1C
DCAF1: DDB1- and CUL4-associated factor 1 (DCAF1, Homo sapiens, UniProt Q9Y4B6)
Chain of UniProt Q9Y4B6 (whole entry, looked up): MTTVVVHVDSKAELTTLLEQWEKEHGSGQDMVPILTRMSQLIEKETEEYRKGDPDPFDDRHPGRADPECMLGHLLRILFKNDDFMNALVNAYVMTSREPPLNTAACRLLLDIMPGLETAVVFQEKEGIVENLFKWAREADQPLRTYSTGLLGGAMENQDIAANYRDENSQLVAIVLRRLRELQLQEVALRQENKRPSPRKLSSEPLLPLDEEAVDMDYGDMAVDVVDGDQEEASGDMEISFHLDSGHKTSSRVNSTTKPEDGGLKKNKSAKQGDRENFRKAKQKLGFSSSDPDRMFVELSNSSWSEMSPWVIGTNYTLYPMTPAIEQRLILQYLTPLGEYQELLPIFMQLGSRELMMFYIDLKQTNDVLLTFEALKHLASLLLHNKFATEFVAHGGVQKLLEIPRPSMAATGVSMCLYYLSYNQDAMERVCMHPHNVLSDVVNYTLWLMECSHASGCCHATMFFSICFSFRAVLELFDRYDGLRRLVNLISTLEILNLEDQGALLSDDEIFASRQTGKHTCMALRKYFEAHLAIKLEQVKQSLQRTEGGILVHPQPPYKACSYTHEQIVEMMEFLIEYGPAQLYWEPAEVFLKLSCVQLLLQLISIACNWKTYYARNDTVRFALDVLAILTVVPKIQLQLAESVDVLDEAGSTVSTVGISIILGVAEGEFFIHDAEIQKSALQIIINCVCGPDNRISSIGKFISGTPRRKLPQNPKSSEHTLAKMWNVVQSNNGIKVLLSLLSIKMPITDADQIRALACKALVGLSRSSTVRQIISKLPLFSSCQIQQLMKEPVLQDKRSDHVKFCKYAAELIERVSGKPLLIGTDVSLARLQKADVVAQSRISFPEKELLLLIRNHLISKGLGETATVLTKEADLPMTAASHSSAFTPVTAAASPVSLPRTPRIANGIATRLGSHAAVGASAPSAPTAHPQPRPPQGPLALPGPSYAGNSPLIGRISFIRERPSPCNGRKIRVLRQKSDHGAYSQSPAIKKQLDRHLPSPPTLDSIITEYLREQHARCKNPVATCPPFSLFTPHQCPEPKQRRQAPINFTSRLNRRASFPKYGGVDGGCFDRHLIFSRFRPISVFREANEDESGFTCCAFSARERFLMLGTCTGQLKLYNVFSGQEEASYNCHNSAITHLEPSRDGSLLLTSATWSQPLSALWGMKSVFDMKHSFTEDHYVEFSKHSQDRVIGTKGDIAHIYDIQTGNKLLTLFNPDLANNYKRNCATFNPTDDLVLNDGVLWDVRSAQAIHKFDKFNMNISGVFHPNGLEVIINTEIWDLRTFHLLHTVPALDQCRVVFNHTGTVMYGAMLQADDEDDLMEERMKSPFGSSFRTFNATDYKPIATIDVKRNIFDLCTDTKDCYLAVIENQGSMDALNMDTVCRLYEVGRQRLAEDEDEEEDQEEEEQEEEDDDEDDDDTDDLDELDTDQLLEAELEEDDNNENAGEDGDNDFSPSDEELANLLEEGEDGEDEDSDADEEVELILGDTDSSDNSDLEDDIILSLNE
WDR5: WD repeat-containing protein 5 (WDR5, Homo sapiens, UniProt P61964)
target = DCAF1; temperature = 72.41 °C; value = 46100 a.u.
target = WDR5; temperature = 51.6 °C; value = 16700 a.u.
target = DCAF1; temperature = 80.01 °C; value = 39900 a.u.
target = DCAF1; temperature = 63.81 °C; value = 54100 a.u.
target = WDR5; temperature = 72.81 °C; value = 39100 a.u.
target = DCAF1; temperature = 45.8 °C; value = 14800 a.u.
target = WDR5; temperature = 36.8 °C; value = 13800 a.u.
target = WDR5; temperature = 85.81 °C; value = 61000 a.u.
target = DCAF1; temperature = 59.01 °C; value = 43100 a.u.
target = DCAF1; temperature = 82.41 °C; value = 38200 a.u.
target = DCAF1; temperature = 48.6 °C; value = 17000 a.u.

Study 3 — cell line: U-87 MG; concentration: concentration not given; reference: DMSO; endpoint: log2 fold change
Structure (SMILES): CCN1/C(=C/C=C2\CCCC(/C=C/C3=[N+](CC)c4ccccc4C3(C)C)=C2NCCCCCCCCN2CCC(Nc3nc4ccccc4n3Cc3ccc(F)cc3)CC2)C(C)(C)c2ccccc21
refers to = NGF mRNA; value = 2.18
refers to = ANXA8L1 mRNA; value = -1.92
refers to = CSNK2A1 mRNA; value = 0.929
refers to = MED26 mRNA; value = 0.864
refers to = PSG5 mRNA; value = -2.57
refers to = FICD mRNA; value = 1.69
refers to = FGFBP1 mRNA; value = -4.02
refers to = ST8SIA1 mRNA; value = -1.93
refers to = SPATA17 mRNA; value = 1.92
refers to = POLE2 mRNA; value = -2.26
refers to = OSBPL7 mRNA; value = -1.59
refers to = AS3MT mRNA; value = -1.33
refers to = CDCA5 mRNA; value = -1.54
refers to = CENPW mRNA; value = -1.98
refers to = HIRIP3 mRNA; value = -0.816
refers to = ZDHHC12 mRNA; value = -1.09

Study 4 — effect on: binding; technique: HTRF; concentration: 111.11 nM; endpoint: inhibition
Target: Membrane-associated tyrosine- and threonine-specific cdc2-inhibitory kinase (PKMYT1, Homo sapiens, UniProt Q99640)
Residues (Q99640 1-499): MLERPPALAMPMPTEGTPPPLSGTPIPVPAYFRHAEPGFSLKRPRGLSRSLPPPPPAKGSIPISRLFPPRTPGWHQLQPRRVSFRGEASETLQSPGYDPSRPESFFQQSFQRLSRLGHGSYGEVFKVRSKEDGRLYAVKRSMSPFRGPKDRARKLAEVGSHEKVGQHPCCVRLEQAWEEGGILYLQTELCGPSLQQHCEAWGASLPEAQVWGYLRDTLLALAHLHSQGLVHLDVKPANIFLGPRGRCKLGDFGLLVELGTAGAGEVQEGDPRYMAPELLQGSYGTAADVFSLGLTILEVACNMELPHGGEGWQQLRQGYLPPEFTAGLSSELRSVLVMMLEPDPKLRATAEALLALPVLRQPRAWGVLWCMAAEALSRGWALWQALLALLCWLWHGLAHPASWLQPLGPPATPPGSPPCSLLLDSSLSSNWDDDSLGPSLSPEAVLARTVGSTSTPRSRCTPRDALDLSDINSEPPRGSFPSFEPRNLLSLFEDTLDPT
SMILES = Cc1ccc(O)c(C)c1-c1cnc2[nH]c(-c3cnc(N4CCC(CN5CCN(c6c(F)cc(NC7CCC(=O)NC7=O)cc6F)CC5)CC4)nc3)cc2c1C#N (racemic); value = 84.3% and 83.6%
SMILES = Cc1ccc(O)c(C)c1-c1cnc2[nH]c(-c3cnc(N4CCC(CN5CCN(c6ccc(NC7CCC(=O)NC7=O)c(F)c6)CC5)CC4)nc3)cc2c1C#N (racemic); value = 99.1% and 99.7%
SMILES = Cc1ccc(O)c(C)c1-c1cnc2[nH]c(-c3cnc(N4CCC5(CC4)CC(N4CCN(c6ccc7c(c6)C(=O)N(C6CCC(=O)NC6=O)C7=O)CC4)CO5)nc3)cc2c1C#N (mixture of isomers); value = 98.7% and 98.9%
SMILES = Cc1ncc(-c2cc3c(N)c(-c4c(C)ccc(O)c4C)cnc3[nH]2)cn1; value = 67.1% and 66.4%
SMILES = Cc1ccc(O)c(C)c1-c1cnc2[nH]c(-c3cnc(N4CCC(CCN5CCN(c6ccc(N7CCC(=O)NC7=O)cc6F)CC5)CC4)nc3)cc2c1C#N; value = 99.4% and 99.1%
SMILES = Cc1ccc(O)c(C)c1-c1cnc2[nH]c(-c3cnc(N4CCC5(CC4)CC(N4CCN(c6cc7c(cc6F)c(N6CCC(=O)NC6=O)nn7C)CC4)CO5)nc3)cc2c1C#N (racemic); value = 99.1% and 97.3%

Excerpt of the above (study 4):
SMILES = Cc1ncc(-c2cc3c(N)c(-c4c(C)ccc(O)c4C)cnc3[nH]2)cn1; value = 67.1% and 66.4%
SMILES = Cc1ccc(O)c(C)c1-c1cnc2[nH]c(-c3cnc(N4CCC(CN5CCN(c6c(F)cc(NC7CCC(=O)NC7=O)cc6F)CC5)CC4)nc3)cc2c1C#N (racemic); value = 84.3% and 83.6%
SMILES = Cc1ccc(O)c(C)c1-c1cnc2[nH]c(-c3cnc(N4CCC(CN5CCN(c6ccc(NC7CCC(=O)NC7=O)c(F)c6)CC5)CC4)nc3)cc2c1C#N (racemic); value = 99.1% and 99.7%
SMILES = Cc1ccc(O)c(C)c1-c1cnc2[nH]c(-c3cnc(N4CCC(CCN5CCN(c6ccc(N7CCC(=O)NC7=O)cc6F)CC5)CC4)nc3)cc2c1C#N; value = 99.4% and 99.1%
SMILES = Cc1ccc(O)c(C)c1-c1cnc2[nH]c(-c3cnc(N4CCC5(CC4)CC(N4CCN(c6cc7c(cc6F)c(N6CCC(=O)NC6=O)nn7C)CC4)CO5)nc3)cc2c1C#N (racemic); value = 99.1% and 97.3%
SMILES = Cc1ccc(O)c(C)c1-c1cnc2[nH]c(-c3cnc(N4CCC5(CC4)CC(N4CCN(c6ccc7c(c6)C(=O)N(C6CCC(=O)NC6=O)C7=O)CC4)CO5)nc3)cc2c1C#N (mixture of isomers); value = 98.7% and 98.9%
